Assay results of several laboratories.
Protocols differ between the studies behind these lines. Converted amounts (≈) assume the structure as drawn.
pH: 7.4

O=c1c(-c2cnn(-c3ccccc3)c2)c(C(F)(F)F)oc2c(O)c(O)ccc12
kinetic solubility (aqueous buffer): 14.6 µM (≈ 5.67 µg/mL)

CNC(=O)C1CCCN(C(=O)C2CC3CCC2N3C(=O)[C@@H]2C[C@@H](O)CN2C(=O)NCc2cccc(Cl)c2F)C1 (mixture of isomers)
kinetic solubility (PBS): 189 µM

O=C(N1CCCCC1)C12CC(c3ccccc3)(C1)C2(F)F
kinetic solubility (PBS; 2 h, 25 °C): 91 µM (≈ 26.5 µg/mL)

Cc1nc2ccc(S(=O)(=O)n3nc(SCc4ccc(Cl)cc4)nc3N)cc2s1
kinetic solubility (PBS; 24 h): 1.3 µM (≈ 0.588 µg/mL)

O=C(N1CCCCC1)C12CC(c3ccccc3)(C1)C2(Cl)Cl
kinetic solubility (PBS; 2 h, 25 °C): 116 µM (≈ 37.6 µg/mL)

CC[C@H](C)[C@@H]1NC(=O)[C@H](Cc2ccc(O)cc2)NC(=O)CCSCc2cccc(c2)CSCCNC(=O)[C@H](Cc2c[nH]cn2)NC(=O)[C@H](Cc2ccc(O)cc2)NC(=O)[C@H](CC(=O)O)NC(=O)[C@H](Cc2ccc(O)cc2)NC(=O)[C@H](CC(C)C)NC(=O)[C@H](CCCNC(=N)N)NC1=O
kinetic solubility (PBS): 35 µM (≈ 48.7 µg/mL)

O=C(Nc1cc(C(F)F)ns1)Nc1cc(F)ncc1CO
kinetic solubility (PBS; 24 h): 97.3 µM (≈ 31 µg/mL)

CC[C@H](C)[C@@H]1NC(=O)[C@H](Cc2ccc(O)cc2)NC(=O)CSC[C@@H](C(N)=O)NC(=O)[C@H](CC(N)=O)NC(=O)[C@H](Cc2cnc[nH]2)NC(=O)[C@H](Cc2ccc(O)cc2)NC(=O)[C@H](CC(=O)O)NC(=O)[C@H](Cc2ccc(O)cc2)NC(=O)[C@H](CC(C)C)NC(=O)[C@H](CCCNC(=N)N)NC1=O
kinetic solubility (PBS): 118 µM (≈ 165 µg/mL)

O=C(CNC(=O)c1cccc(NC2=NCCCO2)c1)NC[C@H](NC(=O)c1c(Cl)cc(-c2ccccc2)cc1Cl)C(=O)O
kinetic solubility (aqueous buffer): 38 µM (≈ 23.3 µg/mL)

CC[C@H](C)[C@@H]1NC(=O)[C@H](Cc2ccc(O)cc2)NC(=O)CSC[C@@H](C(N)=O)NC(=O)[C@H](CC(N)=O)NC(=O)[C@H](Cc2c[nH]cn2)NC(=O)[C@H](Cc2ccc(O)cc2)NC(=O)[C@H](CC(=O)O)NC(=O)[C@H](Cc2ccc(F)cc2)NC(=O)[C@H](CC(C)C)NC(=O)[C@H](CCCNC(=N)N)NC1=O
kinetic solubility (PBS): 186 µM (≈ 260 µg/mL)

CC(C)(O)Cn1nc(-c2ccccc2)c2c(Cl)c(-c3ccccc3)nnc21
kinetic solubility (PBS; 2 h): 32 µM (≈ 12.1 µg/mL)

O=C(CNC(=O)c1cccc(NC2=NCC(F)(F)CN2)c1)NC[C@H](NC(=O)c1c(Cl)cc(-c2ccccc2)cc1Cl)C(=O)O
kinetic solubility (aqueous buffer): 47 µM (≈ 30.4 µg/mL)

CC[C@H](C)[C@@H]1NC(=O)[C@H](Cc2ccccc2)NC(=O)CSC[C@@H](C(N)=O)NC(=O)[C@H](CC(N)=O)NC(=O)[C@H](Cc2c[nH]cn2)NC(=O)[C@H](Cc2ccc(O)cc2)NC(=O)[C@H](C)NC(=O)[C@H](Cc2ccc(F)cc2)NC(=O)[C@H](CC(C)C)NC(=O)[C@H](CCCCN)NC1=O
kinetic solubility (PBS): > 220 µM

Excerpt of the above:
O=c1c(-c2cnn(-c3ccccc3)c2)c(C(F)(F)F)oc2c(O)c(O)ccc12
kinetic solubility (aqueous buffer): 14.6 µM (≈ 5.67 µg/mL)

O=C(N1CCCCC1)C12CC(c3ccccc3)(C1)C2(Cl)Cl
kinetic solubility (PBS; 2 h, 25 °C): 116 µM (≈ 37.6 µg/mL)
